Assay results pooled from the literature.
Every numbered part comes from another study and shows a few of its results, in no order.
Chain of UniProt O60285 (whole entry, looked up): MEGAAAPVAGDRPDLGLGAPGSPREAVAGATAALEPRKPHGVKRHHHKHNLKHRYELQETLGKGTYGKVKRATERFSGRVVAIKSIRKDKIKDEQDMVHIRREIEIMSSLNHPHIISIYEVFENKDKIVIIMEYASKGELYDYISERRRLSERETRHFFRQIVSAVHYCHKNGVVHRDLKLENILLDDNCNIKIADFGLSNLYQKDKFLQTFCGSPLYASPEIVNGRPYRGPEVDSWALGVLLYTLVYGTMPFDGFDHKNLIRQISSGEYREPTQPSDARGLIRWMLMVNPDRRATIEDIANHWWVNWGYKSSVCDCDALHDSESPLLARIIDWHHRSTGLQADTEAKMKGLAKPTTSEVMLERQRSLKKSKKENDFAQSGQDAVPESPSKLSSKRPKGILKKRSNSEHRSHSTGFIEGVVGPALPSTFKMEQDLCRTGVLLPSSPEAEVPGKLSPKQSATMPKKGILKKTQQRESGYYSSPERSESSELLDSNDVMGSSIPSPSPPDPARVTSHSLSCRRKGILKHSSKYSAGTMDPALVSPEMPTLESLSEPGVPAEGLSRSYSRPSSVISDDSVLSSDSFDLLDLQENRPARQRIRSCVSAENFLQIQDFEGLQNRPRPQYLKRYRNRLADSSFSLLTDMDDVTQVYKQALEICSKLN
Chain of UniProt Q8IU85 (whole entry, looked up): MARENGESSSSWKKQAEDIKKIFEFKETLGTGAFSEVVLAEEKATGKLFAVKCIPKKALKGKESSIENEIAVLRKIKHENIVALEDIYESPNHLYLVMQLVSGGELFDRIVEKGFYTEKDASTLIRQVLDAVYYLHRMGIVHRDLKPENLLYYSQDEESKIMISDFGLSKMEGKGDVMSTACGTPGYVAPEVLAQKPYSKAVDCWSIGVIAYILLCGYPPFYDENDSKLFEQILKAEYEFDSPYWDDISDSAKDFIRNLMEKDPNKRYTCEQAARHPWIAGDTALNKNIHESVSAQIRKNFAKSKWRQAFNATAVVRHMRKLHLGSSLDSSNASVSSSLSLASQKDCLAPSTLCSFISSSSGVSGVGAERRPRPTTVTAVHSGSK
Chain of UniProt P42336 (whole entry, unmodified, looked up): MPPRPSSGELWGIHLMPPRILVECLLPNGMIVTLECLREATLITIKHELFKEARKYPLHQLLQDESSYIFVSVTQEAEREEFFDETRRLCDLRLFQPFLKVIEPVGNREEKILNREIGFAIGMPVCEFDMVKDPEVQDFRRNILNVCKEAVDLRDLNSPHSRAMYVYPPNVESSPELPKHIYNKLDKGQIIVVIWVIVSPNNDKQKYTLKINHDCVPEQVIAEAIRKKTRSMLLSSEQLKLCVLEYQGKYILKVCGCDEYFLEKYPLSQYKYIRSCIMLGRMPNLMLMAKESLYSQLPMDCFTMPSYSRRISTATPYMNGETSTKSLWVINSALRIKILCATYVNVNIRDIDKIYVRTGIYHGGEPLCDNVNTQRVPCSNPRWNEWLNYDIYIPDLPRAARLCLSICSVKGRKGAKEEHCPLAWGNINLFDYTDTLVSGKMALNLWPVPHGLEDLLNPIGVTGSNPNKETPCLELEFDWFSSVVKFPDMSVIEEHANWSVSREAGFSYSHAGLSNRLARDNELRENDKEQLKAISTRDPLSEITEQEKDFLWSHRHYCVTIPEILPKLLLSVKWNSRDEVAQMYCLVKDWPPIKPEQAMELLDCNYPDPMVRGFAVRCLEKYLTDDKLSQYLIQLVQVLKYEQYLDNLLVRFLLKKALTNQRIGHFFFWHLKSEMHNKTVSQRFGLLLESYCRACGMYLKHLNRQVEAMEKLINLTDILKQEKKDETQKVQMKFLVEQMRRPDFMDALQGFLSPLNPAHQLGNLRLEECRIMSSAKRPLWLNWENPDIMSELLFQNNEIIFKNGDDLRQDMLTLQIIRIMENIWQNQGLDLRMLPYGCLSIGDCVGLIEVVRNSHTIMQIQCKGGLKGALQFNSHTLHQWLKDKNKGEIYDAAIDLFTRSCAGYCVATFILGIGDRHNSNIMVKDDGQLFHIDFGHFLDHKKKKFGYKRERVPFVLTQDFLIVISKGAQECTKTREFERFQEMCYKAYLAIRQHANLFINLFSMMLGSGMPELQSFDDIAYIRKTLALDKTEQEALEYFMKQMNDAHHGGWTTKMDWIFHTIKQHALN
Chain of UniProt O14920 (whole entry, looked up): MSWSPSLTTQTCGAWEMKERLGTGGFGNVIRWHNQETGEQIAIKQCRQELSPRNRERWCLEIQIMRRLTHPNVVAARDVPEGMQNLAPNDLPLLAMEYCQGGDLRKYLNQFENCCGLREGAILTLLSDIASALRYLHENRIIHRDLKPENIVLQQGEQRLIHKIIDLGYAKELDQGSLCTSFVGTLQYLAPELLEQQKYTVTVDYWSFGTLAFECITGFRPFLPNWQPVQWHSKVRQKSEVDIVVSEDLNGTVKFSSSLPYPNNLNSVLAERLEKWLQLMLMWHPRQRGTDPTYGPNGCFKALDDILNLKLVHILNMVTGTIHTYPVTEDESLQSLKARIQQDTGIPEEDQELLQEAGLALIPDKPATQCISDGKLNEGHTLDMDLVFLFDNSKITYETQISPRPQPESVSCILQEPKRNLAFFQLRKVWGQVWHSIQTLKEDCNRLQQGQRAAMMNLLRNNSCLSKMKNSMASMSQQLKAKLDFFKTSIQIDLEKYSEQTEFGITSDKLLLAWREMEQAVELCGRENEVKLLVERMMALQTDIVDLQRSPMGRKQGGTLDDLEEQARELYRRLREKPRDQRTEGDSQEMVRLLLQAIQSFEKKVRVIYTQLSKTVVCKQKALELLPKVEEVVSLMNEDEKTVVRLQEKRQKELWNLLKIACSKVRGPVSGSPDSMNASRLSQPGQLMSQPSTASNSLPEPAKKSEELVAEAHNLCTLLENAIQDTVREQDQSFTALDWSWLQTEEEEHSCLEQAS
Chain of UniProt Q9NYL2 (whole entry, looked up): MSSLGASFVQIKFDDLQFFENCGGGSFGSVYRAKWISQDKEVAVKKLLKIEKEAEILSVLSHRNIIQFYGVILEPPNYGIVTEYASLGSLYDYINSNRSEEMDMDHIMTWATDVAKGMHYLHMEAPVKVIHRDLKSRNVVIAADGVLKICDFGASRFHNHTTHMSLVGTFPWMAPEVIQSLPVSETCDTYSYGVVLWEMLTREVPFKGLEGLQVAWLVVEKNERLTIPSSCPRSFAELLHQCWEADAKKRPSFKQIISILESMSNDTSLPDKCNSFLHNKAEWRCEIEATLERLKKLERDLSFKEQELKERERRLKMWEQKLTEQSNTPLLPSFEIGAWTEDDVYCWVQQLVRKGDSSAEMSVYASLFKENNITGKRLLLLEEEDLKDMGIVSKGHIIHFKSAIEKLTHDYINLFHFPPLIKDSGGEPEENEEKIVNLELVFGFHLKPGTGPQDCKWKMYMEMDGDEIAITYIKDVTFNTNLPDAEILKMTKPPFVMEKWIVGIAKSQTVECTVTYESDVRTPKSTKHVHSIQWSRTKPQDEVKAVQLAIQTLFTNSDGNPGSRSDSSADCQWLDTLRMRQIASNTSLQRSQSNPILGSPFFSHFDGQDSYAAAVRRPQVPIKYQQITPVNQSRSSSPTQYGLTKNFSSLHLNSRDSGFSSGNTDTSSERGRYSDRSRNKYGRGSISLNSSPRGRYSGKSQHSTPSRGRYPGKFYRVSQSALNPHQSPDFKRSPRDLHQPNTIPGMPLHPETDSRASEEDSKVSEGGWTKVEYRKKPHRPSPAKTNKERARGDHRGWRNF

Series 1
Target: Tyrosine-protein kinase Tec (TEC, Homo sapiens, UniProt P42680)
Read-out: enzyme activity
Action: inhibitor
Concentration: 0.5 µM
Relative to: control
Construct (P42680 1-631): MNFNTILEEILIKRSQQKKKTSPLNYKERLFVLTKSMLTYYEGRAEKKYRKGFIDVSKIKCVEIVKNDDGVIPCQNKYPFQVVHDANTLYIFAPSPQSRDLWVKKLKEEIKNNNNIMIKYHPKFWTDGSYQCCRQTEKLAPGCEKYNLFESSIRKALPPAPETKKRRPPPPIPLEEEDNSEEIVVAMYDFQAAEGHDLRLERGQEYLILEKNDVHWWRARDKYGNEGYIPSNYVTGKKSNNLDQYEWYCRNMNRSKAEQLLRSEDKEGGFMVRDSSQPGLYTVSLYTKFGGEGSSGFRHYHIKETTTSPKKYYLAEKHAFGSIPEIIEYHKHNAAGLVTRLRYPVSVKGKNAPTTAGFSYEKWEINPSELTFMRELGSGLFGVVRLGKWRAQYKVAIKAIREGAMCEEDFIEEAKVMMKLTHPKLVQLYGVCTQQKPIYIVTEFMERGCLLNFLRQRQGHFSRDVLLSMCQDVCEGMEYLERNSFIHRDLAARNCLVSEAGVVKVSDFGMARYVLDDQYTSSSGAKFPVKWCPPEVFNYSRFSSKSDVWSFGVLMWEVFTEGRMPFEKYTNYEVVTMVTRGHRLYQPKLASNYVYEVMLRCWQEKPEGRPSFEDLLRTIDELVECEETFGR
| Compound | remaining activity [%] |
| --- | --- |
| Cc1ccc(Nc2nccc(N(C)c3ccc4c(C)n(C)nc4c3)n2)cc1S(N)(=O)=O | 101 |
| CN(C)c1ccc(C=C2C(=O)Nc3ccccc32)cc1 | 103 |
| COc1cc2nccc(Oc3ccc(NC(=S)NC(=O)c4ccccc4C)cc3)c2cc1OC | 90.8 |
| O=C1NC(=O)C(c2cn(CCCn3ccnc3)c3ccccc23)=C1Nc1ccccc1 | 162 |
| COc1ccc(CNC(=O)Nc2ncc([N+](=O)[O-])s2)cc1 | 97.7 |
| Cn1c2ccccc2c2c3c(c4c5ccccc5n(CCC#N)c4c21)CNC3=O | 96.4 |
| O=C(Nc1cccc(Nc2cc(Nc3cccc(C(F)(F)F)c3)ncn2)c1)C1CC1 | 115 |
| O=S(=O)(c1cccc2cnccc12)N1CCCNCC1 | 109 |
| COc1ccc(C(=O)Nc2sc3c(c2C(N)=O)CCCC3)cc1OC | 115 |
| Cc1cccc(-c2[nH]c(C(C)(C)C)nc2-c2ccc3c(c2)OCO3)n1 | 123 |
| Oc1ccc(-c2nc(-c3ccncc3)c(-c3ccc(F)cc3)[nH]2)cc1 | 106 |
| COc1cc2ncnc(Nc3ccc(F)c(Cl)c3)c2cc1OCCCN1CCOCC1 | 104 |
| Cc1nc(-c2ccccc2)c(-c2ccncc2)o1 | 127 |
| OCC(O)CCON=C1C(c2c(O)[nH]c3ccccc23)=Nc2ccccc21 (stereo not shown) | 101 |
| C#Cc1cccc(Nc2ncnc3cc(OCCOC)c(OCCOC)cc23)c1 | 96.2 |

Series 2
Target: Receptor-interacting serine/threonine-protein kinase 3 (RIPK3, Homo sapiens, UniProt Q9Y572)
Chain of UniProt Q9Y572 (whole entry, looked up): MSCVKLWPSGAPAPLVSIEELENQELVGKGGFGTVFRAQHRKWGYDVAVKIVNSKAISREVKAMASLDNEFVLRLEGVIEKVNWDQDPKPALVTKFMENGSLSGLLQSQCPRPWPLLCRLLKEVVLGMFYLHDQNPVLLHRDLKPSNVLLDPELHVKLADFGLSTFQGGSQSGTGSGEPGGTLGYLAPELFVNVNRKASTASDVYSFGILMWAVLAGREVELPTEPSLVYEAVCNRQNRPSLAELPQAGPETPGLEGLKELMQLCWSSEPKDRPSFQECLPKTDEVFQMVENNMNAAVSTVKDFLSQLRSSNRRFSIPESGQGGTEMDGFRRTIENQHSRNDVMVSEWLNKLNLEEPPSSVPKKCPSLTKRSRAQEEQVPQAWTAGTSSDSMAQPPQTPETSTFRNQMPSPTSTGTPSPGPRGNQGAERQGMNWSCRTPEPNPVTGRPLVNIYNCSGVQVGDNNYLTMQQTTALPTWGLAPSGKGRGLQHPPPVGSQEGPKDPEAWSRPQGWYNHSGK
Read-out: enzyme activity
Action: inhibitor
Method: ADP detection
| Structure (SMILES) | IC50 [nM] |
| --- | --- |
| Cc1ccc(O)cc1Nc1ccnc2cc(-c3ccccn3)ccc12 | 1.58 |
| CC(C)S(=O)(=O)c1ccc2nccc(Nc3ccc4sc(C5CCCC5)nc4c3)c2c1 | 1.58 |
| CC(C)(C)c1nc(-c2cccc(NS(=O)(=O)c3c(F)cccc3F)c2F)c(-c2ccnc(N)n2)s1 | 28.2 |
| CC[C@@H](C)c1nc2cc(Nc3ccnc4ccc(S(=O)(=O)C(C)C)cc34)ccc2s1 | 3.48 |
| CC(C)S(=O)(=O)c1cc2c(Nc3ccc4sc(C5CCCC5)nc4c3)ccnc2cc1OCCO | 16.4 |

Series 3
Structure (SMILES): COc1ccc2cc(OCC3(C(=O)O)CN(C(=O)c4ccc(F)cc4)C3)ccc2c1
Read-out: cell-free assay
Method: competition with immobilised ligand
Concentration: 1 µM
| target | remaining binding |
| --- | --- |
| CSNK1G3 (Homo sapiens, UniProt Q9Y6M4) | 100% |
| EIF2AK1 (Homo sapiens, UniProt Q9BQI3) | 94% |
| NUAK1 (Homo sapiens, UniProt O60285) | 94% |
| CAMK1D (Homo sapiens, UniProt Q8IU85) | 100% |
| IKBKB (Homo sapiens, UniProt O14920) | 100% |
| PIK3CA (Homo sapiens, UniProt P42336, M1043I) | 100% |
| MAP3K20 (Homo sapiens, UniProt Q9NYL2) | 100% |

Series 4
Target: Beta-1 adrenergic receptor (ADRB1, Homo sapiens, UniProt P08588)
Chain of UniProt P08588 (whole entry, looked up): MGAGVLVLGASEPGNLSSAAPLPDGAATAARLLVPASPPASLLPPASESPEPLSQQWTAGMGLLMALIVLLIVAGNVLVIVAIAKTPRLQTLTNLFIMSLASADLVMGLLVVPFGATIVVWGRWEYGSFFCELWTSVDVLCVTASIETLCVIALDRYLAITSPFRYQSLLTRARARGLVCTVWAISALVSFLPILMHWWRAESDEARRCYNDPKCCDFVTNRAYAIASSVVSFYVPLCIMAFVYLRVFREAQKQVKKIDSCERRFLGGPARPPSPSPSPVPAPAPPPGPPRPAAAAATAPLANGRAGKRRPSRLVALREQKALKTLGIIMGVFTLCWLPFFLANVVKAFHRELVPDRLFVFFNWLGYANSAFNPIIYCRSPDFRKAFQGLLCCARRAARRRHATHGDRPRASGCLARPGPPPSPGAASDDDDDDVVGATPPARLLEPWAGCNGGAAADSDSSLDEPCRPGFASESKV
Action: antagonist
| SMILES | IC50 [nM] |
| --- | --- |
| O=C(COc1ccccc1)Nc1ccc([C@@H](O)[C@H]2COCC(=O)N2CC2CC2)cc1 | ≥ 100000 |
| O=C(NCC(O)CO)c1ccc(OC2CCN(CCc3ccccc3)CC2)cc1 (stereo not shown) | ≥ 100000 |
| CN(Cc1ccc(F)cc1)Cc1ccccc1OCC(O)CN1CCCCC1 (stereo not shown) | ≥ 100000 |
| O=C(Nc1ccc([C@@H](O)[C@H]2COCC(=O)N2Cc2ccc(F)cc2)cc1)c1ccccc1 | ≥ 100000 |

For quick reference, copied from above (series 2):
| Structure (SMILES) | IC50 [nM] |
| --- | --- |
| CC[C@@H](C)c1nc2cc(Nc3ccnc4ccc(S(=O)(=O)C(C)C)cc34)ccc2s1 | 3.48 |
| CC(C)S(=O)(=O)c1cc2c(Nc3ccc4sc(C5CCCC5)nc4c3)ccnc2cc1OCCO | 16.4 |
| CC(C)S(=O)(=O)c1ccc2nccc(Nc3ccc4sc(C5CCCC5)nc4c3)c2c1 | 1.58 |
